Published values pooled from the literature.
Lines come from different studies, so protocols differ. ± marks the error that the study gave.

Substance	assay	system	conditions	scale	measurement	result
CC(C)=CCC/C(C)=C/CC/C(C)=C/COP(=O)(O)OP(=O)(O)OCc1ccccc1[N+](=O)[O-]	–	25 mM NH4HCO3	0.1 mM, irradiation 350 nm	–	uncaging quantum efficiency	0.7 mol/einstein
CC(C)=CCC[C@](C)(O[C@@H]1O[C@H](CO[C@@H]2O[C@H](CO)[C@@H](O)[C@H](O)[C@H]2O)[C@@H](O)[C@H](O)[C@H]1O)[C@H]1CC[C@]2(C)[C@@H]1[C@H](O)C[C@@H]1[C@@]3(C)CC[C@H](O[C@@H]4O[C@H](CO)[C@@H](O)[C@H](O)[C@H]4O[C@@H]4O[C@H](CO)[C@@H](O)[C@H](O)[C@H]4O)C(C)(C)[C@@H]3CC[C@]12C	–	Sprague Dawley rat, male, plasma	oral, 86 mg/kg, pure ginsenoside mixture in water	–	CL/F	2.67 ± 0.5 mL/min/kg
CC[C@H](C)[C@H](NC(=O)[C@H](Cc1ccccc1)NC(=O)[C@H](CCC(=O)O)NC(=O)[C@H](CCCCNC(=O)COCCOCCNC(=O)COCCOCCNC(=O)CC[C@H](NC(=O)CCCCCCCCCCCCCCCCC(=O)O)C(=O)O)NC(=O)[C@H](C)NC(=O)[C@H](C)NC(=O)[C@H](CCC(N)=O)NC(=O)CNC(=O)[C@H](CCC(=O)O)NC(=O)[C@H](CC(C)C)NC(=O)[C@H](Cc1ccc(O)cc1)NC(=O)[C@H](CO)NC(=O)[C@H](CO)NC(=O)[C@@H](NC(=O)[C@H](CC(=O)O)NC(=O)[C@H](CO)NC(=O)[C@@H](NC(=O)[C@H](Cc1ccccc1)NC(=O)[C@@H](NC(=O)CNC(=O)[C@H](CCC(=O)O)NC(=O)C(C)(C)NC(=O)[C@@H](N)Cc1cnc[nH]1)[C@@H](C)O)[C@@H](C)O)C(C)C)C(=O)N[C@@H](C)C(=O)N[C@@H](Cc1c[nH]c2ccccc12)C(=O)N[C@@H](CC(C)C)C(=O)N[C@H](C(=O)N[C@@H](CCCNC(=N)N)C(=O)NCC(=O)N[C@@H](CCCNC(=N)N)C(=O)NCC(=O)O)C(C)C	–	healthy Japanese subjects, plasma	subcutaneous, once weekly	reference: 1.0 mg over 0.5 mg	accumulation ratio	1.05
CN(C)Cc1cc(OCCC[18F])ccc1Sc1ccccc1N	–	male Sprague-Dawley rats, PCA-treated, remainder of brain	intravenous, dose not given, 60 min	–	tissue uptake	0.19 ± 0.03 %ID/g
CC(C)(CC(=O)N1CCCC1)NCC(=O)N1C[C@@H](F)C[C@H]1C#N	–	Chinese type 2 diabetes patients, plasma	oral, 50, 100, 200 mg, multiple once-daily doses, range of group means	–	steady-state half-life	7.4 to 10.2 h
Cc1nc(-c2ccc(OCC(C)C)c(C#N)c2)sc1C(=O)O	–	human adults, plasma	oral, 10 to 160 mg once daily, fed, PopPK post hoc	–	half-life at steady state	7.98 ± 0.97 h
CC(C)C[C@H](NC(=O)[C@H](CCCNC(=N)N)NC(=S)Nc1ccc(C[C@H]2CN(CC(=O)O)CCN(CC(=O)O)CCN2CC(=O)O)cc1)C(=O)N[C@@H](CC(N)=O)C(=O)N[C@H](C(=O)NCC(=O)NCC(=O)N[C@H](C(=O)N[C@@H](Cc1ccc(O)cc1)C(=O)N[C@@H](Cc1ccccc1)C(=O)N[C@@H](CC(C)C)C(=O)N[C@H](C(=O)N[C@H](C(=O)N[C@@H](CCCNC(=N)N)C(=O)N[C@@H](CCC(N)=O)C(=O)O)[C@@H](C)O)[C@@H](C)O)[C@@H](C)O)C(C)C [fluorine-18 labelled]	radio-HPLC	mouse (HepG2 tumour-bearing), liver	intravenous, 5.55 MBq, 1 h	–	intact parent radiotracer	96.06 ± 0.54%
C=CC[C@@H]1/C=C(\C)C[C@H](C)C[C@H](OC)[C@H]2O[C@@](O)(C(=O)C(=O)N3CCCC[C@H]3C(=O)O[C@H](/C(C)=C/[C@@H]3CC[C@@H](O)[C@H](OC)C3)[C@H](C)[C@@H](O)CC1=O)[C@H](C)C[C@@H]2OC	mass spectrometry	kidney transplant recipients, high vs low BMI, whole blood	dose not given, 0 to 4 h	–	dose-adjusted blood concentration	no effect
CC[C@H](C)[C@@H]1NC(=O)[C@H](Cc2ccc(O)cc2)NC(=O)[C@@H](N)CSSC[C@@H](C(=O)N2CCC[C@H]2C(=O)N[C@@H](CC(C)C)C(=O)NCC(N)=O)NC(=O)[C@H](CC(N)=O)NC(=O)[C@H](CCC(N)=O)NC1=O	microdialysis, radioimmunoassay	knock-out male mice lacking compound, hippocampus extracellular fluid	intranasal, 12 µg, total area from zero	–	AUC(0-t)	197 ± 96.3 pg·30 min/sample
acyl ghrelin (human)	–	mouse, Ghsr knockout, cerebellum	intravenous, 10 min	–	brain/serum ratio	7.03 µL/g
C=CC(N)CCC(=O)O (stereo not drawn)	–	male Sprague-Dawley rat, plasma	oral, 1.0 mg/kg, formulation 2, together with: infant formula 1500 mg/kg	–	clearance	9.57 ± 0.317 mL/min/kg
CC1(C)Oc2cc3oc(=O)ccc3cc2C[C@@H]1O	–	male CD-1 mouse, plasma	oral gavage, 80 mg/kg daily, 4 weeks	–	plasma ALP activity	44.2 ± 6.1 U/L
CS/C(S)=N/CCCC[S+](C)[O-] (racemic)	RT-PCR, item: Cyp2e1	female Sprague-Dawley rat, liver	oral gavage, 200 mg/kg, dosed for four days	reference: vehicle	mRNA fold change	0.902
CC[C@H](C)[C@H](NC(=O)[C@H](CCCNC(=N)N)NC(=O)[C@@H]1CCCN1C(C)=O)C(=O)N[C@@H](CC(=O)O)C(=O)N[C@H](C(=O)N[C@@H](CCCNC(=N)N)C(=O)N[C@H](C(=O)N[C@@H](CC(=O)O)C(=O)N1CCC[C@H]1C(N)=O)[C@@H](C)CC)[C@@H](C)CC	rotational rheometry	2% w/v aqueous solution	shear rate range 1-1000 s^-1	–	viscosity	1250 ± 26.4 Pa·s
Cc1cc(C)c2c(c1)[C@@H](N(Cc1cc(C(F)(F)F)cc(C(F)(F)F)c1)c1nnn(C)n1)CCCN2C[C@H]1CC[C@H](C(=O)O)CC1	LC-MS/MS	human, plasma	oral, 300 mg once daily, steady state	–	t1/2	37.1 h
CC(C)[C@H](N)C(=O)OCC1(CO)C/C1=C/n1cnc2c(=O)[nH]c(N)nc21.Cl (mixture of isomers)	item: prodrug	Swiss-Webster mouse (male), plasma	intravenous, 24.6 mg/kg, two-compartment model	–	distribution half-life	2.73 min
Cc1cc(Nc2ncc(Cl)c(Nc3ccccc3S(=O)(=O)C(C)C)n2)c(OC(C)C)cc1C1CCNCC1	item: total drug	patients, plasma	oral, 750 or 450 mg/day, 23.7 h, arithmetic mean	–	Css,min	936 nM
CCCC[C@@H]1NC(=O)[C@@H](NC(=O)[C@H](CCC(=O)O)NC(=O)CNC(=O)CN2CCN(CC(=O)O)CCN(CC(=O)O)CCN(CC(=O)O)CC2)CCCCNC(=O)C[C@@H](C(N)=O)NC(=O)[C@H](C(C)C)NC(=O)[C@@H]2CCCN2C(=O)[C@H](CCCNC(=N)N)NC(=O)CNC(=O)[C@H](Cc2c[nH]c3ccccc23)NC(=O)[C@H](CCCNC(=N)N)NC(=O)[C@@H](Cc2ccccc2)NC(=O)[C@H](Cc2c[nH]cn2)NC(=O)[C@H](CCC(=O)O)NC1=O [indium-111 labelled]	–	C57 mice, B16/F10 lung metastatic melanoma, brain	intravenous, 0.037 MBq, 2 h	–	tissue uptake	0.01 ± 0.01 %ID/g
Cc1cc(-c2cc(OC(=O)c3ccccc3)ccc2Cl)cc2nnc(Nc3ccc(OCCN4CCCC4)cc3)nc12	–	C57BL/6 mouse, retina	topical, 1%, 24 h	–	concentration	16 nM
Cc1ccc(C)c(COc2cc(NC(=O)c3ccc4c(c3)OCO4)ccc2N(C)S(C)(=O)=O)c1	–	male Sprague-Dawley rats, plasma	intraperitoneal, 20 mg/kg	–	Vz/F	3.33 L/kg
CCN1CC(=O)NC(CC(C)C)C(=O)N(C)C(C)C(=O)NC(CC(C)C)C(=O)N2CCCC2C(=O)N(CC2CCOCC2)CC(=O)NC(CC(C)C)C(=O)N(C)C(C)C(=O)NC(C)C(=O)N2CCCC2C1=O (stereo not drawn)	–	mouse	oral, dose not given, together with: GF120918 pretreatment	–	oral bioavailability	4%
O=C(O)C(F)(F)c1cc(F)ccc1Nc1c(Cl)cc(F)cc1Cl	glucuronidation	human liver microsomes	30 min, together with: UDPGA	–	remaining compound	96 ± 16%
C[C@@H](O)[C@H]1C(=O)N2C(C(=O)O)=C(S[C@@H]3CN[C@H](C(=O)N(C)C)C3)[C@H](C)[C@H]12	–	pig (Danish Landrace), plasma, free concentration	iv infusion, 1000 mg over 10 min, MIC 0.25 µg/mL, together with: vancomycin co-administered	–	time above MIC	372 min
CCCOc1ccc([C@H]2CNC(=O)N2c2ccc3[nH]cnc3c2)cc1	–	human, plasma	oral, 800 mg, single dose, fasted, healthy volunteers	–	Cmax	3440 ng/mL

Substance	assay	system	conditions	scale	measurement	result
CC(C)OC(=O)[C@H](CCC(=O)C=[N+]=[N-])NC(=O)OC(OC(=O)C(C)(C)C)c1ccccc1 (stereo partly drawn)	–	human plasma	10 µM, 60 min, 37 °C	–	remaining compound	88 ± 5%
CN[C@H]1C(=O)N[C@@H]2Cc3ccc(cc3)Oc3cc4cc(c3O[C@@H]3O[C@H](C(=O)O)[C@@H](O)[C@H](O)[C@H]3NC(=O)CCCCCCCCC(C)C)Oc3ccc(cc3Cl)[C@@H](O)[C@@H]3NC(=O)[C@H](NC(=O)[C@@H]4NC(=O)[C@@H](NC2=O)c2cc(cc(O)c2Cl)Oc2cc1ccc2O)c1ccc(O)c(c1)-c1c(O[C@H]2O[C@H](CO)[C@@H](O)[C@H](O)[C@@H]2O)cc(O)cc1[C@@H](C(=O)NCCCN(C)C)NC3=O	population PK model	human patients	–	–	intercompartmental clearance	0.038 L/h
CC(C)C[C@H]1C(=O)N2CCC[C@H]2[C@]2(O)O[C@](NC(=O)[C@@H]3C=C4c5cccc6[nH]c(Br)c(c56)C[C@H]4N(C)C3)(C(C)C)C(=O)N12	–	male Sprague-Dawley rats, plasma	intravenous, 0.1 mg/kg, together with: DAL 1.7 mg/kg plus HAL 0.7 mg/kg	–	clearance	3.05 ± 0.433 mL/min/kg
C=CC(=O)Nc1cc(Nc2ncc(C(=O)OC(C)C)c(-c3cn(C)c4ccccc34)n2)c(OC)cc1N(C)CCN(C)C	–	human, fasted	oral, 40 mg single dose, geometric mean	–	terminal half-life	16 h
CNC(=O)c1ccc(-c2cnc3ncc(Cc4ccc5ncccc5c4)n3n2)cc1F	–	human mild hepatic impairment	oral, 200 mg single dose, adjusted geometric mean	–	AUC(0-inf)	4790 ng·h/mL
CC1=C2C[C@H]3[C@@H](CC[C@@H]4C[C@H](NS(C)(=O)=O)CC[C@@]43C)[C@@H]2CC[C@@]2(C1)O[C@@H]1C[C@H](C)CN[C@H]1[C@H]2C	–	patients, plasma	oral, 180 mg single, day -7, cycle 1	–	AUC(0-24)	1680 ng·h/mL
O=C(Cc1cccc(OC(F)(F)F)c1)Nc1ccc(CCCCc2nnc(NC(=O)Cc3ccccn3)s2)nn1	–	human patients, plasma	oral, 400 mg three times daily fasted, cycle 1 day 15 steady state	–	Cmin	186 ng/mL
des-acyl ghrelin (human)	–	mouse, Ghsr knockout, hippocampus	intravenous, 10 min	–	brain/serum ratio	8.25 µL/g
O=C1N=C(N2CCOCC2)CN1c1ccc(Cl)cc1	–	beagle dog, both sexes, plasma	oral, 30 mg/kg, tablets, fasted, day 5	–	Tmax	2.06 h
Oc1ccc(-c2nc(-c3ccc(Oc4ccc(C(F)(F)F)cc4)cc3)no2)cc1	–	ICR mice, plasma	intravenous, 50 mg/kg	–	initial half-life	3.5 min
CCCC[C@H](NC(C)=O)C(=O)N[C@H]1CCC(=O)NC[C@@H](C(=O)N[C@@H](Cc2c[nH]c3ccccc23)C(N)=O)NC(=O)[C@H](CCCNC(=N)N)NC(=O)[C@@H](Cc2ccccc2)NC(=O)[C@H](Cc2c[nH]cn2)NC1=O	–	beagle dog, female, plasma	subcutaneous, 8.0 mg/kg daily, day 1	–	AUC(0-last)	1560 ng·h/mL
CSc1cc(C)nc(SC)c1NC(=O)CN1CCN(CCSc2nc3ccccc3[nH]2)CC1	–	mouse Crl:CD1 (ICR) female, olfactory bulb	intranasal repeated, 32.4 µg in 0.01 N HCl, 5 min	–	concentration	156 ng/g
Cn1ncc(Cl)c1-c1cc(C(=O)N[C@H](CN)Cc2ccc(F)c(F)c2)oc1Cl	–	human patients, plasma	oral, 20 mg once daily, day 8, repeat dose	–	effective half-life	84.7 h
C[C@]12CC[C@@H]3c4ccc(O)cc4CC[C@H]3[C@@H]1C[C@@H](O)[C@@H]2O	GC-MS	breast cancer women on NSAI, serum	vaginal, 0.03 mg daily, 2 h, day 28	–	mean serum concentration	0.00196 ng/mL
CC(=O)Nc1ccc(O)cc1	–	Sprague Dawley rat, overdose	oral, 1725 mg/kg, 24 and 48 h, single dose	reference: saline control	ALT and AST increase	> 5 fold
C[C@H]1CO[C@@H]2Cn3cc(C(=O)NCc4ccc(F)cc4F)c(=O)c(O)c3C(=O)N12	–	human, plasma	oral, 30 mg, 24 h, single dose, fasted, healthy volunteers	–	concentration	1660 ng/mL
NC(=O)N1CCC(CC(=O)N2CCC([C@H]3c4ncc(Br)cc4CCc4cc(Cl)cc(Br)c43)CC2)CC1	–	human, plasma	oral, 150 mg twice daily, cycle 1 day 15, together with: gemcitabine 750 mg/m2	–	AUC(tau)	5790 ng·h/mL
N[C@@H](CC(=O)O)Cn1nnc(-c2ccc(Oc3ncc(Cl)cc3F)cc2)n1	–	male beagle dog, blood	oral, 3 mg/kg daily, 4 days after last dose	–	concentration	~30 ng/mL
[2H]C([2H])([2H])Oc1cc2c(cc1OC([2H])([2H])[2H])C1CC(=O)C(CC(C)C)CN1CC2 (stereo not drawn)	item: total (α+β)-HTBZ	human, fasted	oral, 15 mg single dose	reference: tetrabenazine 25 mg fasted	geometric mean ratio Cmax	34.4%
Cn1c(-c2ccc(C(N)=O)cc2F)nnc1C(C)(C)Oc1c(F)cc(Cl)cc1F	–	young Japanese adults, plasma	oral, 50 mg single dose, day 1, high-dose multiple-dose study	–	Cmax median	681 ng/mL
O=c1cc(-c2ccc(O)c(-c3c(O)cc(O)c4c(=O)cc(-c5ccc(O)cc5)oc34)c2)oc2cc(O)cc(O)c12	UV-vis pH titration	ethanol-water, 0.1 M NaCl	25 µM, 25 °C, fifth pKa, phenol deprotonation	–	pKa	11
CN1CC[C@@H](NC(=O)Nc2ccc(C#N)cc2)C[C@@H]1c1nc2ccccc2[nH]1	–	severe hepatic impairment, plasma	oral, 100 mg single dose, fasted, arithmetic mean	–	AUC(0-inf), unbound	1060 ± 384 ng·h/mL
Cl.Cl.NCCCn1c2c(c3ccc(N)cc3c1=O)C(=O)c1ccccc1-2	–	Sprague-Dawley rat, female, perirenal fat	oral, 40 mg/kg/day for 3 days, 3 h after last dose, pooled samples	–	tissue concentration	0.28 µg/g
Cc1nc2cccc(OCC(C)(C)C(=O)NC(C)C)c2c(N)c1C(=O)O	–	female Sprague-Dawley rat, plasma	dietary, 30 mg/kg/day, day 90	–	Tmax	3 h
